Measured values from different studies.
Each numbered part is a random draw from the data of one study; scales do not carry over between parts.
Sequence of UniProt P15735 (whole entry, looked up): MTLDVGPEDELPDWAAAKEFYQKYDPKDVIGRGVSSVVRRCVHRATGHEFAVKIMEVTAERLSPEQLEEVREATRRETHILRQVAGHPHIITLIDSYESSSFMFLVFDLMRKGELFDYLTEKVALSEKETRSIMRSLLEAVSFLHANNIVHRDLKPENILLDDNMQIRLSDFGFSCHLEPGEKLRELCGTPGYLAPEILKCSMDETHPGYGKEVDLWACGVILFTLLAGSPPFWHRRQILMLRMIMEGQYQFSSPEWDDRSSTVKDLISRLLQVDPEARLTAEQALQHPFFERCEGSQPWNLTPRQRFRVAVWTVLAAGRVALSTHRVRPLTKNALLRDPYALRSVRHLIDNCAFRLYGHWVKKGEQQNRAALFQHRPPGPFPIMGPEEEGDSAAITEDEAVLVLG
Sequence of UniProt Q8TD08 (whole entry, looked up): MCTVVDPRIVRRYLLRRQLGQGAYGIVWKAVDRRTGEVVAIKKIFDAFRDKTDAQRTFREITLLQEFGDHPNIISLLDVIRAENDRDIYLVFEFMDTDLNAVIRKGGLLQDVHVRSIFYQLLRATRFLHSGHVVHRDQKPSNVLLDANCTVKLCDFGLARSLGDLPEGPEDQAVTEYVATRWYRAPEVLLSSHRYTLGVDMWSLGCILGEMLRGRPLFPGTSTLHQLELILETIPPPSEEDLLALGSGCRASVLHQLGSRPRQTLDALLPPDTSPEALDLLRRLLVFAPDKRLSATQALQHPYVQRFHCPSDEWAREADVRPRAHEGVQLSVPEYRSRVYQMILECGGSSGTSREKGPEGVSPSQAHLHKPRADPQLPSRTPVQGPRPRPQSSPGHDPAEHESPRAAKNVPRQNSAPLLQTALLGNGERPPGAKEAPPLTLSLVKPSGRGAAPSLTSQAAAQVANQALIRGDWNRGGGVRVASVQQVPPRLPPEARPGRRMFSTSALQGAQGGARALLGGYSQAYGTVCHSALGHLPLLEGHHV
Sequence of UniProt Q8TD19 (whole entry, looked up): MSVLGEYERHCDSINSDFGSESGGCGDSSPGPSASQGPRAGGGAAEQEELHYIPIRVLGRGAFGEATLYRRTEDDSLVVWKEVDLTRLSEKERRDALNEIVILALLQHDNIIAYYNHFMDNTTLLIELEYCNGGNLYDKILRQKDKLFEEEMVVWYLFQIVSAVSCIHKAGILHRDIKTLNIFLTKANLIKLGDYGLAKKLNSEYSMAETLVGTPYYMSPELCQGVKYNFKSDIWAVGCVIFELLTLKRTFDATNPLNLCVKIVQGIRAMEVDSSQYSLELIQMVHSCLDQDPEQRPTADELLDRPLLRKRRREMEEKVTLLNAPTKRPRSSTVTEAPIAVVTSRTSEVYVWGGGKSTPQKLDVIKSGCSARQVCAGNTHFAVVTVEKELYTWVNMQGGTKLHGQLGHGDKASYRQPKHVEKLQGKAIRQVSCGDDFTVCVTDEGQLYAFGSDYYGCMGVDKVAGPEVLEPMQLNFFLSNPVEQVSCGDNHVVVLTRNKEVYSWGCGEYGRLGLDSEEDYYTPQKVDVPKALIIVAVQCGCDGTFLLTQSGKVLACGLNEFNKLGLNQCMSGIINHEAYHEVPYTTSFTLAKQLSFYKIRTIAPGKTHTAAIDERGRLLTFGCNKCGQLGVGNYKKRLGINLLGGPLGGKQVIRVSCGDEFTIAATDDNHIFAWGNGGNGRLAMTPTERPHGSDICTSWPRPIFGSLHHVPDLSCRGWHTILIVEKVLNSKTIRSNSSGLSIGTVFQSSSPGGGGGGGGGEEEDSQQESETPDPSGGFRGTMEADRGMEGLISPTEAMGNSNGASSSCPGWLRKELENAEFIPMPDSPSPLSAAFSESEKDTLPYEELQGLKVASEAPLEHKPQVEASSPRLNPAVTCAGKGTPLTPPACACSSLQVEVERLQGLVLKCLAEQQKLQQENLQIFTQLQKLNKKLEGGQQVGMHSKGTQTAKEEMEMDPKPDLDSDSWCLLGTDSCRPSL
Sequence of UniProt P49336 (whole entry, looked up): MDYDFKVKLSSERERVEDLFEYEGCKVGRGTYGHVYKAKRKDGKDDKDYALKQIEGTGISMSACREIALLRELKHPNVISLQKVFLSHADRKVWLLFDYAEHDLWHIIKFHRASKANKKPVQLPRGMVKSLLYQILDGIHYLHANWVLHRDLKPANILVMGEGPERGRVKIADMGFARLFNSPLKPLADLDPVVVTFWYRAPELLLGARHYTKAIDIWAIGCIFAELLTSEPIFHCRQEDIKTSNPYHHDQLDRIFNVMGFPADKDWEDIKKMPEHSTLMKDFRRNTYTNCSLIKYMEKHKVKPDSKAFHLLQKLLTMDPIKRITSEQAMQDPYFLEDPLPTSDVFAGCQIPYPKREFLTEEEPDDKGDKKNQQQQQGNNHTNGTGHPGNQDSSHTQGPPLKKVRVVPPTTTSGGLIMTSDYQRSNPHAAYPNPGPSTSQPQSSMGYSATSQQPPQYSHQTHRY
Sequence of UniProt P07949 (whole entry, looked up): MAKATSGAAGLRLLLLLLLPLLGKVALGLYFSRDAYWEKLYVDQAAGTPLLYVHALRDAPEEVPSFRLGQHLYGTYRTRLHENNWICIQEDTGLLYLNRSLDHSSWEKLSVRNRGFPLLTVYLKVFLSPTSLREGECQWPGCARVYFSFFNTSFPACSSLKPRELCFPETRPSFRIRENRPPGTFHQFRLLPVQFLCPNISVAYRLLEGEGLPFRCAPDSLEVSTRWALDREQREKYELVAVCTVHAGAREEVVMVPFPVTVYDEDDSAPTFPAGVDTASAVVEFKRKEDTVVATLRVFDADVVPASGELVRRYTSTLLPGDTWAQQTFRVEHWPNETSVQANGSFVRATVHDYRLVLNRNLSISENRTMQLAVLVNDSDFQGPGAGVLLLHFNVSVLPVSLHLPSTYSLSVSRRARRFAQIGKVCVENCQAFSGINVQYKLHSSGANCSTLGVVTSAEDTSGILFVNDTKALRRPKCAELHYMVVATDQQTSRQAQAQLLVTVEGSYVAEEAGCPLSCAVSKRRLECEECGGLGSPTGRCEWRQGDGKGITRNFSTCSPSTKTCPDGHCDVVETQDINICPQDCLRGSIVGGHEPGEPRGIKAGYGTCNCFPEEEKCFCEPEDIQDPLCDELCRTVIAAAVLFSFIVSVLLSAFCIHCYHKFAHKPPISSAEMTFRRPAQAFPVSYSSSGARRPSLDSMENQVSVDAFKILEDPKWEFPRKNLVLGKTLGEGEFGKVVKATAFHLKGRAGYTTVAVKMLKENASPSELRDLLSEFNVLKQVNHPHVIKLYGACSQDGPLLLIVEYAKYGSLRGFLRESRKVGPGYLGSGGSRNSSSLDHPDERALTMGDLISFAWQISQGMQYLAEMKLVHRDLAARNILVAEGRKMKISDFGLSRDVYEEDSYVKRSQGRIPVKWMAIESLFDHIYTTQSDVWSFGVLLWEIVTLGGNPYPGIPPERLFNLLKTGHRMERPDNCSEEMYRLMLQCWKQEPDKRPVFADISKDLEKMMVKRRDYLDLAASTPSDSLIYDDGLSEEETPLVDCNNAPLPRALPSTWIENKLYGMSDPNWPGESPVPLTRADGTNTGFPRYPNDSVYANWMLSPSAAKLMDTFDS
Sequence of UniProt P46734 (whole entry, looked up): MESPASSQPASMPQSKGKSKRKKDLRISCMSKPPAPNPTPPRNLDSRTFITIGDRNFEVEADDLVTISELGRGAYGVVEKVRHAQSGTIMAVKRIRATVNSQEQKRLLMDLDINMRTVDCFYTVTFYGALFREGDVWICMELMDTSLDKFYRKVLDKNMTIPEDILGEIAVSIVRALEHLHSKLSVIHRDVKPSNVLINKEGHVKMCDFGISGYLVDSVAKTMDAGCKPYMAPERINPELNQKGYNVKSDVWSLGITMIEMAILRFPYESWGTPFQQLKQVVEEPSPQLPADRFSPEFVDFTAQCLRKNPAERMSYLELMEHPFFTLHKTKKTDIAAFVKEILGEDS

Series 1
Target: Muscle, skeletal receptor tyrosine-protein kinase (MUSK, Homo sapiens, UniProt O15146)
Sequence of UniProt O15146 (whole entry, looked up): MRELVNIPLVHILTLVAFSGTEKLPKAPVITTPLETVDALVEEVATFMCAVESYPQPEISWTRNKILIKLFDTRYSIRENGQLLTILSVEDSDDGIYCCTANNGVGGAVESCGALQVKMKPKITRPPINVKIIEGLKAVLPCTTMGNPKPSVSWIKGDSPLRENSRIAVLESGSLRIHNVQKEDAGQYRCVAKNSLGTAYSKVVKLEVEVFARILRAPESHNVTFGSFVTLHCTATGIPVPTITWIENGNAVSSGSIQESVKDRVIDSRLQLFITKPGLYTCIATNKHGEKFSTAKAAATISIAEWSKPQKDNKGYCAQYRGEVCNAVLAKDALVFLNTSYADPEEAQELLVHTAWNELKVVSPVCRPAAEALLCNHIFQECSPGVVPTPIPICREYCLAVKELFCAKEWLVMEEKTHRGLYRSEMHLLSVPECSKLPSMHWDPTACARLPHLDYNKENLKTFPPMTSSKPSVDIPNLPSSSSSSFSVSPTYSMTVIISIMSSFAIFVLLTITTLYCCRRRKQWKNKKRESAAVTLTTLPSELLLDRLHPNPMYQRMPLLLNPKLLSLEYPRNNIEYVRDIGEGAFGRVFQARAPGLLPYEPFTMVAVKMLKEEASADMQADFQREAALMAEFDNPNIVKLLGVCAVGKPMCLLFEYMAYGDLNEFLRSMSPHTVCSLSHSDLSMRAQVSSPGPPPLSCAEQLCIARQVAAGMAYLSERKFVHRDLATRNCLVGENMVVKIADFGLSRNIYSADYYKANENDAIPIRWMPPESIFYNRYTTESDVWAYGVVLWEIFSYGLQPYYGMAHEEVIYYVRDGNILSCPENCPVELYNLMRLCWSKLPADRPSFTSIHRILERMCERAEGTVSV
Observed: enzyme activity
Mode: inhibitor
Concentration: 0.5 µM
Relative to: control
| Compound | remaining activity |
| --- | --- |
| O=S(=O)(c1cccc2cnccc12)N1CCCNCC1 | 97.6% |
| O=C(Nc1cccc(Nc2cc(Nc3cccc(C(F)(F)F)c3)ncn2)c1)C1CC1 | 113% |
| COc1ccc(OC)c2c(=S)c3ccccc3[nH]c12 | 87.3% |
| Cc1ccc(NC(=O)c2ccc(CN3CCN(C)CC3)cc2)cc1Nc1nc(-c2cccnc2)cs1 | 99% |
| Nc1ccc2ncnc(NCCc3ccc(Oc4ccccc4)cc3)c2c1 | 102% |
| COc1cc2ncnc(Nc3ccc(F)c(Cl)c3)c2cc1OCCCN1CCOCC1 | 98.1% |
| COc1ccc(CNC(=O)Nc2ncc([N+](=O)[O-])s2)cc1 | 115% |
| Cc1nc(-c2ccccc2)c(-c2ccncc2)o1 | 95.9% |
| CNC(=O)c1cc(Oc2ccc(NC(=O)Nc3ccc(Cl)c(C(F)(F)F)c3)cc2)ccn1 | 101% |
| Cc1cccc(-c2[nH]c(C(C)(C)C)nc2-c2ccc3c(c2)OCO3)n1 | 99.1% |
| Cc1ccc(Nc2nccc(N(C)c3ccc4c(C)n(C)nc4c3)n2)cc1S(N)(=O)=O | 95.1% |
| O=C(CCCc1ccc(-c2ccccc2F)cc1)Nc1ccc(O)cc1 | 93.1% |
| O=C1NC(=O)C(c2cn(CCCO)c3ncccc23)=C1c1cnccn1 | 67.2% |
| Cn1c2ccccc2c2c3c(c4c5ccccc5n(CCC#N)c4c21)CNC3=O | 34.8% |
| NCCNc1ncc(C(N)=O)c(Nc2cccc(C(F)(F)F)c2)n1 | 88.6% |
| N#CC(C#N)=C(N)/C(C#N)=C/c1ccc(O)cc1 | 103% |

Series 2
Organism: Plasmodium berghei
Mode: inhibitor
Cell line: Huh-7
Strain: GFP-expressing, liver stage
Concentration: 10 µM
Time: 24 h
Relative to: untreated control
| Compound | infection rate [%] |
| --- | --- |
| C[C@]12C=CC(=O)C=C1CC[C@@H]1[C@@H]2[C@@H](O)C[C@@]2(C)[C@H]1CC[C@]2(O)C(=O)CO | 82.5 |
| CN(C(=O)CN(CCO)CC(=O)N(C)C(C)(C)Cc1ccccc1)C(C)(C)Cc1ccccc1 | 45.3 |
| CN1Cc2c(N)cccc2C(c2ccccc2)C1 (stereo not shown) | 105 |
| CN1CCN(CCCN2c3ccccc3Sc3ccc(C(F)(F)F)cc32)CC1 | 38.2 |
| CC(=O)O[C@H]1C(=O)[C@@]2(C)[C@H]([C@H](OC(=O)c3ccccc3)[C@]3(O)C[C@H](OC(=O)[C@H](O)[C@@H](NC(=O)c4ccccc4)c4ccccc4)C(C)=C1C3(C)C)[C@]1(OC(C)=O)CO[C@@H]1C[C@@H]2O | 72 |
| CCOC(=O)[C@H](CCc1ccccc1)N[C@@H](C)C(=O)N1Cc2ccccc2C[C@H]1C(=O)O | 67.4 |
| NC(=O)c1ncn([C@@H]2O[C@H](CO)[C@@H](O)[C@H]2O)n1 | 104 |

Series 3
Cell line: mouse MPNST tumor cells
Method: high-content nuclear imaging
Item: cell number
Concentration: 10 µM
Time: 12 h
Setting: mean of 2 replicates
Relative to: plate mean
Reading: higher = more cells
| SMILES | nuclei count |
| --- | --- |
| COc1ccccc1C(=O)Nc1cccc(NC(=O)c2cccc(C)c2)c1 | 1.26 z-score |
| CCCCCN(CCCCC)C(=O)C(CCC(=O)O)NC(=O)c1ccc(Cl)c(Cl)c1 (stereo not shown) | 1.9 z-score |
| CCOc1ccccc1OCC1CNCCO1 (stereo not shown) | -0.488 z-score |
| Cc1ccccc1N(C)C(=O)c1ccc([S+]([O-])c2nccs2)c([N+](=O)[O-])c1 (stereo not shown) | -6.52 z-score |
| CC[C@]12CCCN3CCc4c(n(c5ccccc45)[C@@](O)(C(=O)OC)C1)[C@@H]32 | 3.55 z-score |
| CC(=O)NCCSc1nc2cscc2c(=O)n1-c1ccc(OCC(F)(F)F)cc1 | 2.53 z-score |
| O=C1NC(=O)c2cc(Nc3ccc(F)cc3)c(Nc3ccc(F)cc3)cc21 | 3.19 z-score |

Series 4
Structure (SMILES): CN(c1ccnc(CNc2nc(Nc3ccc4c(c3)CC(=O)N4)ncc2C(F)(F)F)n1)S(C)(=O)=O
Observed: cell-free assay
Method: competition with immobilised ligand
Concentration: 1 µM
| target | remaining binding [%] |
| --- | --- |
| Cyclin-dependent kinase 8 (CDK8, Homo sapiens, UniProt P49336) | 97 |
| Proto-oncogene tyrosine-protein kinase receptor Ret (RET, Homo sapiens, UniProt P07949) | 49 |
| Serine/threonine-protein kinase Nek9 (NEK9, Homo sapiens, UniProt Q8TD19) | 63 |
| Serine/threonine-protein kinase WNK2 (WNK2, Homo sapiens, UniProt Q9Y3S1) | 22 |
| Phosphorylase b kinase gamma catalytic chain, liver/testis isoform (PHKG2, Homo sapiens, UniProt P15735) | 63 |
| Mitogen-activated protein kinase 15 (MAPK15, Homo sapiens, UniProt Q8TD08) | 4.8 |
| Dual specificity mitogen-activated protein kinase kinase 3 (MAP2K3, Homo sapiens, UniProt P46734) | 58 |

Repeated from above (series 2):
| Compound | infection rate [%] |
| --- | --- |
| CCOC(=O)[C@H](CCc1ccccc1)N[C@@H](C)C(=O)N1Cc2ccccc2C[C@H]1C(=O)O | 67.4 |
| C[C@]12C=CC(=O)C=C1CC[C@@H]1[C@@H]2[C@@H](O)C[C@@]2(C)[C@H]1CC[C@]2(O)C(=O)CO | 82.5 |
| CN1CCN(CCCN2c3ccccc3Sc3ccc(C(F)(F)F)cc32)CC1 | 38.2 |
| CC(=O)O[C@H]1C(=O)[C@@]2(C)[C@H]([C@H](OC(=O)c3ccccc3)[C@]3(O)C[C@H](OC(=O)[C@H](O)[C@@H](NC(=O)c4ccccc4)c4ccccc4)C(C)=C1C3(C)C)[C@]1(OC(C)=O)CO[C@@H]1C[C@@H]2O | 72 |
| NC(=O)c1ncn([C@@H]2O[C@H](CO)[C@@H](O)[C@H]2O)n1 | 104 |
| CN1Cc2c(N)cccc2C(c2ccccc2)C1 (stereo not shown) | 105 |
